Assay results gathered from unrelated publications.
A part holds a random share of what one study measured. Positions count from the first letter of the parent shown.

Block 1 — target: CCNB1, cyclin fold, Cln2 fusion (human); method: yeast growth competition, sequencing; medium: yeast; notes: strong parent motif; relative to: not given; reading: higher = stronger binding
Parent: PKN2 docking peptide (human); VSAVQKLDFSDTM; partner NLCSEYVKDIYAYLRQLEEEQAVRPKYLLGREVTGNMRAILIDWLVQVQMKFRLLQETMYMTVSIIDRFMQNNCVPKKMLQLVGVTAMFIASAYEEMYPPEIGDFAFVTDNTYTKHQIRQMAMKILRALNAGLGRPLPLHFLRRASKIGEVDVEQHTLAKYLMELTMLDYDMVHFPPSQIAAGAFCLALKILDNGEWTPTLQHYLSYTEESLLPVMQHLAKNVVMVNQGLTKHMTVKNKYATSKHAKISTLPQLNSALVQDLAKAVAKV
| Variant | normalised enrichment score |
| --- | --- |
| L7Y | 0.957 |
| F9K | 0.318 |
| D11V | 0.741 |
| K6N | 0.969 |
| S10R | 1.03 |
| M13I | 2.1 |
| V4P | 0.294 |
| L7N | 0.311 |
| D8N | 1.4 |
| S2E | 1.39 |
| V1D | 2.17 |
| S2K | 1.27 |
| M13C | 2.48 |
| K6C | 1.6 |
| D8W | 1.4 |
| D11A | 1.06 |
| T12M | 1.61 |
| T12W | 2.45 |
| M13D | 1.91 |
| M13V | 1.86 |
| M13F | 1.54 |

Block 2 — method: DHFR PCA, deep sequencing; medium: yeast; with: (+)-ABA 0 µM; relative to: wild-type fitted maximum; reading: higher = stronger binding
Target: ABI1, truncated, D143A, DHFR fusion (Arabidopsis thaliana)
Notes: methotrexate growth selection, single substitutions
Parent: PYL1, truncated, DHFR fusion (Arabidopsis thaliana); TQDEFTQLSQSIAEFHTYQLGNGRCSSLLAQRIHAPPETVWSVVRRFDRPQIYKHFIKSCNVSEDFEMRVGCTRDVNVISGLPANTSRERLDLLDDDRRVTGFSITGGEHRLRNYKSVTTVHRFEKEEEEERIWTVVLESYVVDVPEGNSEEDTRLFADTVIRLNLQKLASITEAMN; partner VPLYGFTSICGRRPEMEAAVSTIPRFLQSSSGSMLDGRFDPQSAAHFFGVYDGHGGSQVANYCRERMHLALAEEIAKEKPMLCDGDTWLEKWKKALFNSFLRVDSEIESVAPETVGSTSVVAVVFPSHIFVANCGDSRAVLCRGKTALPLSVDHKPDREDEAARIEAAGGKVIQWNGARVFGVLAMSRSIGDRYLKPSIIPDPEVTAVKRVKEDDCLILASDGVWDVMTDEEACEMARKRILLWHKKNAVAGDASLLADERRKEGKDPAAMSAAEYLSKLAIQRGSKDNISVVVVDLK
| Variant | relative binding score [%] |
| --- | --- |
| V137T | -0.481 |
| C25Q | -10.8 |
| V161T | 14.2 |
| E130W | 1.35 |
| E38N | -1.23 |
| S27A | 2.47 |
| N85A | 50 |
| F103I | -3.71 |
| L93V | 32.5 |
| V100E | -1.6 |
| E64P | 48.7 |
| A158P | -8.3 |
| A84D | 20.4 |
| S26K | 3.2 |
| T6C | 24.6 |
| R99L | 46.1 |
| V100C | 17.6 |
| V44A | -1.08 |

Block 3 — method: protein-binding microarray; molecule type: double-stranded DNA, one strand shown; medium: in vitro; tested at: 250 nM; notes: 60-bp whole probe; with: salmon DNA 0.4 mg/ml; relative to: random background probes; reading: higher = stronger binding; constant ends, left off below: GCCTAGCAC … GTCTTGATTCGCTTGACGCTGCTG
Target: Interferon regulatory factor 7, full length, phosphomimetic (IRF7, Homo sapiens, UniProt Q92985, residues 1-503, S101K/S471D/S472D/S475D/S476D/S477D/S483D/S484D/S487D)
Target sequence (chain): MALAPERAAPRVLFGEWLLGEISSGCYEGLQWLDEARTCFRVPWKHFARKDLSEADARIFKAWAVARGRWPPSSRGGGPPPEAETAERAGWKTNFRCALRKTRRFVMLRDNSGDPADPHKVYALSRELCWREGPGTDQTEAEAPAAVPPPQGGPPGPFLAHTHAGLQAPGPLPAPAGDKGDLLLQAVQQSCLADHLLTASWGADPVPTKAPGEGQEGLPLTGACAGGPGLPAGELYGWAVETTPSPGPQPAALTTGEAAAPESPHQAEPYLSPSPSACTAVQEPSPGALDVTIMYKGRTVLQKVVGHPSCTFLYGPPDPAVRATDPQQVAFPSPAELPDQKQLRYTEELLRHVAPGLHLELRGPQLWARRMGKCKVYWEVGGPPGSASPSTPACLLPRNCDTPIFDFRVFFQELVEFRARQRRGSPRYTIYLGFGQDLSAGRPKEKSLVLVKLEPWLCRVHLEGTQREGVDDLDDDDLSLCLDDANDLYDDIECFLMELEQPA
| Sequence | log fluorescence [z-score] |
| --- | --- |
| TTGGATTCCAGTTTCGATTAGTGCTAG | 9.54 |
| GACGGGTTCCTTCTCCTGACGTGCTAG | 0.486 |
| GACGATATCAGTATCGAGCCGTGCTAG | -0.368 |
| TTAGAACGGAGTCTCGATTAGTGCTAG | 0.818 |
| CTTGCTTTCCTACTGAAATAGTGCTAG | 1.3 |
| TTAGGGTTCGACTATCGGTTAGTGCTA | 0.121 |
| TTAGCTATCCTTATCCTTTAGTGCTAG | -0.0169 |
| TTAGAACTGGGGTTTCGATTTGTGCTA | 10.5 |
| GACGGTTTCTGGACTGGGGACGTGCTA | 0.862 |
| GACGATTTCGGGTTTCGCGACGTGCTA | 2.21 |
| TCATAAGTTTCACTCTGCACTGTGCTA | 2.98 |
| CTTAGTTTGTATATATTTTAGTGCTAG | 0.491 |
| GACGGTTTCGGACTGGAGACGTGCTAG | 3.73 |
| CTGCTCTGTGCACAGAAGACGTGCTAG | -0.0398 |
| CTCGGTTTCCAAATTGTCTCGTGCTAG | 3.66 |
| TCATTTCCCAACATCAGACTGTGCTAG | 4.09 |

Block 4 — method: RNA Bind-n-Seq; molecule type: RNA; medium: in vitro; tested at: 365 nM; relative to: no-protein control; reading: higher = stronger binding
Target: RNA binding protein fox-1 homolog 2, RRM domain, GST-SBP tag (RBFOX2, Homo sapiens, UniProt O43251-10, residues 100-194)
Notes: natural RNA segment, single round, ends assumed
Constant ends, left off below: GGGAGUUCUACAGUCCGACGAUC … UGGAAUUCUCGGGUGCCAA
Construct (chain): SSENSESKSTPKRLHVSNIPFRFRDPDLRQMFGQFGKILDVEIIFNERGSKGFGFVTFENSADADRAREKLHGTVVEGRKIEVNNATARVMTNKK
| Sequence | RBNS enrichment (R) |
| --- | --- |
| GGCCCAGCCUCCUGCUCGCACCUCCUGCCCUACCUAGGAAGCCCUCCAGAGGGCCAGCCUCUGCUGAGCGGGGGAAGUGGGCACUGACUACAGCAGGUGGAGAUGGUGCA | 0.603 |
| UUGGGUGUGGGGAAAAAUUUUUUUCUGAAGGCUCAAAAGUGGUUUCCUAAAAGUGAGCCACUAUCAGAUUUGCACAUCAGGAGAAAAGAAAUAGGGUUACGUCCAUUAGG | 0.668 |
| CUGUGCUCUGGGGGUCCCUUGCUUAGCCUGUGCUGGACCAGCUGGCCUGGGGUCCCUCUGAAGAGACCUUGGCUGCUCACUGUCCACAUGUGAACUUUUUCUAGGUGGCA | 0.392 |
| GCCGUGGUACUUUUCCAUUUAGAUUCAAAUGGAGCUAAAAUUAAGAGUUUUAUGAGCUGUUAAGAAUGAGGUAGUUUCUCCUAGGACCCCCCAAAGACAGUGCAAGUAAU | 0.575 |
| GUACCAGUAUGGCGACGACCAGGGCAUUGAUUAUAGAGUCACACACAGGAGCGCAGUAUUUAGUCCAUUGUUUUAUCCAGUGAGACCCAAGCUAGCCUUGAAUAAUUCUU | 0.274 |
| UGUAUUUCUUAGUAGUGAUACCAUUGAUCCUCUUACUUUUUUUACUCCAUUAAUACUAAUAAUUAUAUACUUUGCUGAGGAUCAAAACAGCCAAGAAAGGAAUUACUGCU | 0.644 |
| CCUGGGAUGCAGAGGAGGGGGAUCACUGCAAGACCACCCUGGUUGCUCUCCAUAUGAGCUCCAGGCCAGCUUGGGUUACAUAAGGAAACCCUGUCUUGAGAAAAACCAAU | 0.901 |
| UUGACCUGAUGAGGGACAGAGCUUGGUUGGAUGACCCGGGAGAAGUCAGGGCAGGGCUCCAGGGGAUAACAGGUGUCCUGCUUCUCCUUUGGCAAUGCAAAAUGACUCCU | 0.795 |
| UAACUUUUGUUGCCUCUUAACGCCACCAAAUUUUAGGGUAAUUUGAUUAUGAAAGAGUGAAUUUUUCUGGACAGAAAAGGGAGAGCUACCAAAUUGUUUUUUUCUUUUUA | 0.828 |
| GCUCCCAGGCGCCCCAUGUCCUCACAGGCCAGGACGCCAUGGCAGGAUGGAGAGGACUUGGUGGAUUUUUGUUUCUUGCCUGACCUCAGUUUCAUGAAAGAAAGUGGAAG | 0.3 |
| AGUUUAUGUACAGGGAAAAGGAUUUUAUUAUCCUUAGGAAUGUCAUCCAAGACGUAGAGCUUGAAUGUGACGUUAUUUAAAAACAACAACAAAGAAGGCAGAGCCAGGAU | 0.619 |
| ACUUUUCCUCGUGUGUUGUUGACUCUUUAAACAUAACAGGUAUUAUUAAAAUUAACUGUUAACUGACCCAGCCCAUUCUCUCUCGUUUUGCCCUCGUUUUGCCACUGUAU | 1 |

Block 5 — method: competition protein-binding microarray; molecule type: double-stranded DNA, one strand shown; medium: in vitro; tested at: 2 µM; with: Cbf1 competitor, 0.05 µM; reading: higher = stronger binding; constant ends, left off below: … GTCTTGATTCGCTTGACGCTGCTG
Target: Phosphate system positive regulatory protein PHO4, full length, GST-tagged (PHO4, Saccharomyces cerevisiae, UniProt P07270, residues 1-312)
Notes: whole 60-bp probe, lowest competitor level
Residues (chain): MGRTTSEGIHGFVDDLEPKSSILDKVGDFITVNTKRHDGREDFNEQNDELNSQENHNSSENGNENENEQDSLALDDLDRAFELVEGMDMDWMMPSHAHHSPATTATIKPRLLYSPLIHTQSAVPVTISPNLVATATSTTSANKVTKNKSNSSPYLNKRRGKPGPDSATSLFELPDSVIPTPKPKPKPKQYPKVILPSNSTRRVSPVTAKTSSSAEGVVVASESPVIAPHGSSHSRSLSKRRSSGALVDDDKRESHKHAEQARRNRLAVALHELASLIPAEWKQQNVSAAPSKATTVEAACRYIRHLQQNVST
| Sequence | fluorescence intensity [a.u.] |
| --- | --- |
| CGGGGTTAAGTTTGTCACCTTACTTGCTTGCAGCAG | 3240 |
| CTTGCCGAGATGGTGTTCGTGACGGAAATTGTGGAA | 5020 |
| GCTCGCAGGGTCAACCACGTGCTGGGGAGAGGAGCC | 15300 |
| AACGATGCCCTTACCCACGTTATTGTTGTATAATTC | 11900 |
| GTCTTGTCTCATTGACATGTGGGTGTCCCCACTTCA | 10500 |
| TGCGCAACAACTTGGCCCGTGGGTGTATGTCTAGAA | 8820 |
| CGTCCTAGTGATTGTATAGTGGGTGCCATGAGGAAG | 7010 |
| TCTCCTCACAATTTTCACGTGCTTTCGATCTTAGTT | 17400 |
| CTTTTTTTTCTCTCGCCCGTGCCGATCCGTCTTCGA | 9330 |
| AAAGCGGTAATTTGTACCGTGGGTGCAGATATCTAT | 5720 |
| TACTATAGGGGCCGACACGTTAGGTGATGACGATAA | 5770 |
| CGAACGTAGCTTCGTCACATGCTATGCTAGCAACTA | 7920 |
| CTTCTGTAAATTTGTCACGTCACTTGACGCGCCCCG | 4630 |
| CGTAAGAAAGGCCATCACGTGTGGAGGGGAGAGCTC | 11900 |
| TCCATTCGAGACCTGTCCGTGATGGCGAGGACAAGA | 3900 |
| CTTAACAGCAACTTGAACGTGAAGATGAACTTTACT | 6980 |
| ATATCTTCTAAATCGCACGGGTTCAAGATCGCAAAA | 9270 |
| AGTAATTGTACGATGCACGTGCAAAAAAAGTGCTCA | 16100 |
| TTTAGGTAATTTGACACCGTGCCGAAATGGCTTGGC | 8640 |

Repeated from above (block 4):
| Sequence | RBNS enrichment (R) |
| --- | --- |
| GUACCAGUAUGGCGACGACCAGGGCAUUGAUUAUAGAGUCACACACAGGAGCGCAGUAUUUAGUCCAUUGUUUUAUCCAGUGAGACCCAAGCUAGCCUUGAAUAAUUCUU | 0.274 |
| UGUAUUUCUUAGUAGUGAUACCAUUGAUCCUCUUACUUUUUUUACUCCAUUAAUACUAAUAAUUAUAUACUUUGCUGAGGAUCAAAACAGCCAAGAAAGGAAUUACUGCU | 0.644 |
| CCUGGGAUGCAGAGGAGGGGGAUCACUGCAAGACCACCCUGGUUGCUCUCCAUAUGAGCUCCAGGCCAGCUUGGGUUACAUAAGGAAACCCUGUCUUGAGAAAAACCAAU | 0.901 |
| UUGACCUGAUGAGGGACAGAGCUUGGUUGGAUGACCCGGGAGAAGUCAGGGCAGGGCUCCAGGGGAUAACAGGUGUCCUGCUUCUCCUUUGGCAAUGCAAAAUGACUCCU | 0.795 |
| UAACUUUUGUUGCCUCUUAACGCCACCAAAUUUUAGGGUAAUUUGAUUAUGAAAGAGUGAAUUUUUCUGGACAGAAAAGGGAGAGCUACCAAAUUGUUUUUUUCUUUUUA | 0.828 |
| GCUCCCAGGCGCCCCAUGUCCUCACAGGCCAGGACGCCAUGGCAGGAUGGAGAGGACUUGGUGGAUUUUUGUUUCUUGCCUGACCUCAGUUUCAUGAAAGAAAGUGGAAG | 0.3 |
